Assay results collected from several papers.
Protocols differ between the studies behind these lines.
Target: Serine/threonine-protein kinase ULK3 (ULK3, Homo sapiens, UniProt Q6PHR2)
Residues used in one study (Q6PHR2 1-472): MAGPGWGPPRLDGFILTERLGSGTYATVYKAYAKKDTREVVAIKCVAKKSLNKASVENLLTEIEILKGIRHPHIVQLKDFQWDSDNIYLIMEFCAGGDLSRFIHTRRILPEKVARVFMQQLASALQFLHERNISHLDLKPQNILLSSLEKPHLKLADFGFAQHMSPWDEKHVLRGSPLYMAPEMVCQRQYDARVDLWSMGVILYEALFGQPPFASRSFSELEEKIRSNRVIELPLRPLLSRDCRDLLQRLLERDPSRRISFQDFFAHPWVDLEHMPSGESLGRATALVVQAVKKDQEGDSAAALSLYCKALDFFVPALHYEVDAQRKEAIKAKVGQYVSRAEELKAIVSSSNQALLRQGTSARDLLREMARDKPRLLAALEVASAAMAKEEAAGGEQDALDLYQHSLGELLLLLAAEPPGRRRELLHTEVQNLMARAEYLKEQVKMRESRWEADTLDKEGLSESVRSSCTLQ

Compound	assay	test system	setting	scale	quantity	value
CCn1cc(C(=O)O)c(=O)c2c(N)c(F)c(NC3CCCCC3)cc21	kinase activity	–	0.1 µM, together with: ATP at Km	–	inhibition	20.6%
COc1cc(Nc2nccc(-c3cnn4nc(OC)ccc34)n2)cc(C(F)(F)F)c1	binding, competition with immobilised ligand	–	1 µM	–	remaining binding	79%
C=CC(=O)N1CCCC(n2c(=O)c3ncccc3n(Cc3ccc(Oc4ccccc4)cc3)c2=O)C1 (centres unmarked)	cell-free assay, competition with immobilised ligand	–	1 µM	–	remaining binding	78%
C=CC(=O)Nc1cc(-c2nn(C3CCN(CCNC(=O)[C@H](C)CCC45CC6CC(CC(C6)C4)C5)CC3)c3ncnc(N)c23)ccc1Oc1ccccc1	inhibitor, KiNativ profiling	biochemical	2 µM	–	inhibition	2.4%
CN1CCN(Cc2ccc(-c3ccc(CO[C@H]4CCC[C@@H]4NC(=O)c4cc(-c5cnn(C)c5)cnc4N)cc3)cc2)CC1	enzyme activity, inhibitor	–	0.1 µM	–	inhibition	8%
CNC(=O)C1CCN(c2cc(C)c(F)cc2NC(=O)c2ccc(-c3cc(O)ccc3C)c(C)c2)CC1	binding, competition with immobilised ligand	–	1 µM	–	remaining binding	79%
NC(=O)[C@@H](O)C[C@H]1CCc2sc3ncnc(O[C@H]4CC[C@H](N5CCOCC5)CC4)c3c21	enzyme activity, inhibitor	–	10 µM	–	inhibition	2%
COc1ccc(NC(=O)Nc2ccc3c(c2)C(=O)N(C(C)CO)CC(C)C(CN(C)Cc2ccc4c(c2)OCO4)O3)cc1 (centres unmarked)	kinase activity, KinaseProfiler	–	0.03 µM, species human	baseline: control	remaining activity	102%
Cc1ccc(C(=O)Nc2ccc(CN3CCN(C)CC3)c(C(F)(F)F)c2)cc1C#Cc1cnc2cccnn12	target engagement, NanoBRET	human cells	–	–	upper asymptote	125
Nc1ncc2c(n1)-c1c([nH]c3ccc(C4=CCOCC4)cc13)CCC2	binding, competition with immobilised ligand	–	1 µM	–	remaining binding	98%
CNC1C[S+]2CC[S+]3CC[S+](C1)[Ru-4]321([N]=C=S)[n]2c3ccc(OC)cc3c3c4c(c5cc(F)c[n+]1c5c32)C(=O)NC4=O (centres unmarked)	KinomeScan	–	0.1 µM	baseline: untreated	remaining binding	88%
Cc1cnc2nc1Nc1cccc(c1)COC/C=C/COCc1cc(ccc1OCCN1CCOCC1)N2	–	–	concentration not given	baseline: DMSO control	remaining binding	99%
O=C(Cc1ccc(OCc2ccccc2)cc1)NC1(C(=O)O)CCN(C(=O)c2ccc(-c3cccc(Cl)c3)cc2)CC1	enzyme activity, inhibitor	–	10 µM	–	activity vs control	82%
CN1CC[C@@H](COc2cnc(C#N)cc2-c2ccn3nc(NC(=O)C4CC4)cc3c2)C1	inhibitor, KinaseProfiler panel	–	1 µM	–	inhibition	-9%

Repeated from above:
Compound	assay	test system	setting	scale	quantity	value
Nc1ncc2c(n1)-c1c([nH]c3ccc(C4=CCOCC4)cc13)CCC2	binding, competition with immobilised ligand	–	1 µM	–	remaining binding	98%
